{"data": "Published values from different studies"}
{"Compound": "C[C@@H](Nc1cc(F)cc(F)c1)c1cc(C(=O)N(C)C)cc2c(=O)cc(N3CCOCC3)oc12", "system": "human, dose-expansion cohort, plasma", "conditions": "oral, 120 mg twice daily, geometric least-squares mean, added: abiraterone 1000 mg", "quantity": "Cmax", "result": "982 ng/mL"}
{"Compound": "Cl.[2H]C([2H])([2H])CC(=O)c1cnc(NC(=O)C2CC2)cc1Nc1cccc(-c2ncn(C([2H])([2H])[2H])n2)c1OC", "assay": "geometric mean", "system": "human", "conditions": "oral, 40 mg twice daily, day 1, fasted, tablet, multiple dose", "quantity": "Cmax", "result": "250 ng/mL"}
{"Compound": "O=C(O)CCC(=O)O.[2H]C([2H])([2H])Oc1cc(C)c2[nH]ccc2c1CN1CC[C@@H](C2CC2)C[C@H]1c1ccc(C(=O)O)cc1", "system": "human, plasma", "conditions": "200 mg once daily, day 10, multiple ascending dose, geometric mean", "quantity": "Cmax", "result": "4260 ng/mL"}
{"Compound": "CCOc1c([C@H](C)n2nc(C)c3c(N)ncnc32)cc(Cl)c(F)c1[C@@H]1CNC(=O)C1", "system": "human patients, plasma", "conditions": "oral, 20 mg, day 1, geometric mean", "quantity": "Cmax", "result": "1510 nM"}
{"Compound": "C[C@@H]1CCO[C@H]2Cn3cc(C(=O)NCc4ccc(F)cc4F)c(=O)c(O)c3C(=O)N12", "system": "human, body weight 20 to <25 kg, plasma", "conditions": "oral, 22.4 mg, granules, steady state", "quantity": "Cmax", "result": "4880 ng/mL"}
{"Compound": "CCn1cc(C(=O)N2CCOCC2)c(=O)c2cc(NC3Cc4ccccc4C3)cnc21", "system": "human, fed", "conditions": "oral suspension, 600 mg/day twice daily, day 8, arithmetic mean", "quantity": "Cmax", "result": "2420 ng/mL"}
{"Compound": "CC(C)[C@H](N)C(=O)NCCCS(=O)(=O)O", "system": "human both sexes, plasma", "conditions": "oral, 256.5 mg once daily, day 1, fed capsule", "quantity": "Cmax", "result": "6370 ng/mL"}
{"Compound": "CCN1CCN(Cc2ccc(Nc3ncc(F)c(-c4cc(F)c5nc6n(c5c4)[C@H](C)CCC6)n3)nc2)CC1", "system": "human, plasma", "conditions": "500 mg single dose, mean", "quantity": "Cmax", "result": "248 ng/mL"}
{"Compound": "COc1ncc(-c2nc3c(n2C(C)C)[C@H](c2ccc(Cl)cc2)N(c2cc(Cl)cn(C)c2=O)C3=O)c(OC)n1", "assay": "LC-MS/MS", "system": "human, plasma", "conditions": "oral, 15 mg, cycle 1 day 8, low-dose arm", "quantity": "Cmax", "result": "128 ng/mL"}
{"Compound": "CNC(=O)c1ccc(-c2cnc3ncc(Cc4ccc5ncccc5c4)n3n2)cc1F", "system": "human, mild NCI classification, plasma", "conditions": "oral, 200 mg, adjusted geometric mean", "quantity": "Cmax", "result": "1800 ng/mL"}
{"Compound": "CN1C(=O)[C@@H](NC(=O)c2nnc(Cc3ccccc3)[nH]2)COc2cccnc21", "system": "healthy human, fasted, plasma", "conditions": "oral, 10 mg single dose, geometric mean", "quantity": "Cmax", "result": "249 ng/mL"}
{"Compound": "O=C(COc1ccc(Cl)cc1)NC12CC(c3nnc([C@H]4C[C@@H](OC(F)(F)F)C4)o3)(C1)C2", "system": "healthy human both sexes, plasma", "conditions": "oral, 45 mg once daily, day 1, mean", "quantity": "Cmax", "result": "631 nM"}
{"Compound": "C=CC(=O)N(C)CCOc1c(N)ncnc1-c1cc(F)cc(NC(=O)c2ccc(C3CC3)cc2F)c1C", "system": "human", "conditions": "oral, 20 mg, day 7, median, added: ritonavir", "quantity": "Cmax per dose", "result": "7.73 ng/mL/mg"}
{"Compound": "COc1cc(N2CCC(N3CCN(C)CC3)CC2)ccc1Nc1ncnc(Nc2ccccc2S(=O)(=O)C(C)C)n1", "system": "human, dose expansion arm, plasma", "conditions": "oral, 200 mg, day 1, mean", "quantity": "Cmax", "result": "1130 ng/mL"}
{"note": "Repeated from above:"}
{"Compound": "COc1cc(N2CCC(N3CCN(C)CC3)CC2)ccc1Nc1ncnc(Nc2ccccc2S(=O)(=O)C(C)C)n1", "system": "human, dose expansion arm, plasma", "conditions": "oral, 200 mg, day 1, mean", "quantity": "Cmax", "result": "1130 ng/mL"}
{"Compound": "COc1ncc(-c2nc3c(n2C(C)C)[C@H](c2ccc(Cl)cc2)N(c2cc(Cl)cn(C)c2=O)C3=O)c(OC)n1", "assay": "LC-MS/MS", "system": "human, plasma", "conditions": "oral, 15 mg, cycle 1 day 8, low-dose arm", "quantity": "Cmax", "result": "128 ng/mL"}
